Experimental data gathered from unrelated publications.
Protocols differ between the studies behind these lines. “And” joins repeats or separate records; there may be more than shown. ± gives the spread as reported.
niaR Y133A: niaR 1-174 Y133A (Streptococcus mutans, UniProt Q8DVX8)
B1: CXCL16; sequence looked up; chain NEGSVTGSCYCGKRISSDSPPSVQFMNRLRKHLRAYHRCLYYTRFQLLSWSVCGGNKDPWVQELMSCLDLKECGHAYSGIVAHQKHLLPTSPPISQASEGASSDIHTPAQMLLSTLQSTQRPTLPVGSLSSDKELTRPNETTIHTAGHSLAAGPEAGENQKQPEKNAGPTARTSATVPVLCLLAIIFILTAALSYVLCKRRRGQSPQSSPDLPVHYIPVAPDSNT
B2: Lqq V toxin, rhodamine on Lys60 (Leiurus quinquestriatus quinquestriatus, UniProt P01481); ends and bridges not checked; also: 125I-labelled, site not given here; rhodamine on Lys60; chain LKDGYIVDDKNCTFFCGRNAYCNDECKKKGGESGYCQWASPYGNACWCYKLPDRVSIKEK(6‑carboxytetramethylrhodamine acetamide)GRCN
Chain of UniProt P08603 (whole entry, unmodified, looked up): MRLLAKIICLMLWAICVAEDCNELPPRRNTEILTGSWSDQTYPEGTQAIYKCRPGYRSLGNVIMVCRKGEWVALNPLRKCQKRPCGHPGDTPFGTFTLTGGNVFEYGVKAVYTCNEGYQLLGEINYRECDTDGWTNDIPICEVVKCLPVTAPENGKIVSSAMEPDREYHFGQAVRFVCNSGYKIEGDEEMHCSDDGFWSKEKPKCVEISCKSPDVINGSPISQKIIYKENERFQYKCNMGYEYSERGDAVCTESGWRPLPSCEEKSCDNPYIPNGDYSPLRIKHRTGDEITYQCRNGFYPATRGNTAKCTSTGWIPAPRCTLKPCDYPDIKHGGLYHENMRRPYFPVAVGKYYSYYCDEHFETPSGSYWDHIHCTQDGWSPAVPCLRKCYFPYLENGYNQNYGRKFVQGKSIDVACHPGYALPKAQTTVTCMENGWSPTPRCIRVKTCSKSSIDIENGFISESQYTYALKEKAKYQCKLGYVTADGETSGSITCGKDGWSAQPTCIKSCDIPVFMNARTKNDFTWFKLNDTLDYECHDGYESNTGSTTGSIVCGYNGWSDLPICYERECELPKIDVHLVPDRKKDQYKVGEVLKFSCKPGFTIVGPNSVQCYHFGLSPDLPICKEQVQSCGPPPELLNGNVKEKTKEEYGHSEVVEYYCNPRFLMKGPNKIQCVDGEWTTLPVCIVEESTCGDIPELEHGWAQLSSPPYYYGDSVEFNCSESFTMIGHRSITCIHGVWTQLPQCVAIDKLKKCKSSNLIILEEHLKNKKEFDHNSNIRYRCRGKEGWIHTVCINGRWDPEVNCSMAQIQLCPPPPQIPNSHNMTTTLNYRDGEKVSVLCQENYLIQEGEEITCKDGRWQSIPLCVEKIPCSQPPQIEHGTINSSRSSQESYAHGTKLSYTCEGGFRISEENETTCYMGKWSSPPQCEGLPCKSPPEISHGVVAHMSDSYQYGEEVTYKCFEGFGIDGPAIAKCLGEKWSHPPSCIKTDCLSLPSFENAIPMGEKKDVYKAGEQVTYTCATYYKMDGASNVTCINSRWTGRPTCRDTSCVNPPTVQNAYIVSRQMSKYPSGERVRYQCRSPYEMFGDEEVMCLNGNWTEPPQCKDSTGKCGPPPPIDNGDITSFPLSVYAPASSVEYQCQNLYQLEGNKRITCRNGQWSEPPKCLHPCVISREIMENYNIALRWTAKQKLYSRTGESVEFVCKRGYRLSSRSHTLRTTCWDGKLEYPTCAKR
Chain of UniProt P04775 (whole entry, looked up): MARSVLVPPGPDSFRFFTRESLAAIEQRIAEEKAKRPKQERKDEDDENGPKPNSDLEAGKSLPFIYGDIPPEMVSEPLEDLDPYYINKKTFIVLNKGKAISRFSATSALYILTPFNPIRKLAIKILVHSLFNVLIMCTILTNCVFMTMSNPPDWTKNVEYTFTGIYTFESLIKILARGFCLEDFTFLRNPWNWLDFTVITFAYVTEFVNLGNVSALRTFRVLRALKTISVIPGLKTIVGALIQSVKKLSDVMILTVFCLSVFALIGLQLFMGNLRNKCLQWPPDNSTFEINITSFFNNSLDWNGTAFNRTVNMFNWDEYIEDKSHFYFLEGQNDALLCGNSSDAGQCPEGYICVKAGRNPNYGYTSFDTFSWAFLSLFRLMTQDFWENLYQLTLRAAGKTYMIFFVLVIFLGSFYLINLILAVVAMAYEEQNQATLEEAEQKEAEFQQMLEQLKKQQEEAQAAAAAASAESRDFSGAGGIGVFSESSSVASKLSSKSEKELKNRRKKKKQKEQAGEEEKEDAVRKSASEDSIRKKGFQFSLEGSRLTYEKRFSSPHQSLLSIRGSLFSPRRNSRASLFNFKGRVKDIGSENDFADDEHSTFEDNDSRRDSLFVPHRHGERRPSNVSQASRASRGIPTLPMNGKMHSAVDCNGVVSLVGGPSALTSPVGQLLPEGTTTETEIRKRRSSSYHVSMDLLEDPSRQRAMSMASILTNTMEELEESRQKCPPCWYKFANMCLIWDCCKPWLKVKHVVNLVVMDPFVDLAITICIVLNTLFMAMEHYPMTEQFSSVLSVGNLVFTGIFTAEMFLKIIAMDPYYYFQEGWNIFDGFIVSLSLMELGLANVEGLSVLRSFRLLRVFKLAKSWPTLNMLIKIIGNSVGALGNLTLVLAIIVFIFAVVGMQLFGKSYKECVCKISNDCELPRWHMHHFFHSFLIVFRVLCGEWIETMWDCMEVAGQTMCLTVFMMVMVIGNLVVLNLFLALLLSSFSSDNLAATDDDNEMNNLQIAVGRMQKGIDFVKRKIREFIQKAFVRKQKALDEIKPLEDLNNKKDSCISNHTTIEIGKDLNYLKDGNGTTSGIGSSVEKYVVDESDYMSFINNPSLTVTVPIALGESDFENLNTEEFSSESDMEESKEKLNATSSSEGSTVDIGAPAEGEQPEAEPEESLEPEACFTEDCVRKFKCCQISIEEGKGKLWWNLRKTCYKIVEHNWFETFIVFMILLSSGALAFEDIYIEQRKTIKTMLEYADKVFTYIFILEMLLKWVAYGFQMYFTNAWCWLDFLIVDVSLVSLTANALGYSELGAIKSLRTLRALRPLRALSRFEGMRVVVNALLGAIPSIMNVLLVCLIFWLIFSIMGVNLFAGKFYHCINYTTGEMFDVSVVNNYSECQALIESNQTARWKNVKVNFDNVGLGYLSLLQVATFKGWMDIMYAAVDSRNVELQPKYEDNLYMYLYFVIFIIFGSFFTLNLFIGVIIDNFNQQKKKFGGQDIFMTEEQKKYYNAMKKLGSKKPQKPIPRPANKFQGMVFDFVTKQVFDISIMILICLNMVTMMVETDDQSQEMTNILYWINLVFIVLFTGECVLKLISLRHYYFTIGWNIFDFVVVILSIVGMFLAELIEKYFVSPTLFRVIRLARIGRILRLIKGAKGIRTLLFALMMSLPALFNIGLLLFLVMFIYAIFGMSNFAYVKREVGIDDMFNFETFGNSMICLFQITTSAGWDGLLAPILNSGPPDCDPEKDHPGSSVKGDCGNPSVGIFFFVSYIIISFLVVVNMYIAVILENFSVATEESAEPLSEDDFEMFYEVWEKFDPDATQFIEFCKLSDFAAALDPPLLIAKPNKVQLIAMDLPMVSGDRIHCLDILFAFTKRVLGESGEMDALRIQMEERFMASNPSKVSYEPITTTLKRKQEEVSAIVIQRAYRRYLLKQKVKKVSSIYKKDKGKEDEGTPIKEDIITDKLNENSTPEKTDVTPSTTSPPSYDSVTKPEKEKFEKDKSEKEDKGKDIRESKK
Chain of UniProt Q182S9 (whole entry, looked up): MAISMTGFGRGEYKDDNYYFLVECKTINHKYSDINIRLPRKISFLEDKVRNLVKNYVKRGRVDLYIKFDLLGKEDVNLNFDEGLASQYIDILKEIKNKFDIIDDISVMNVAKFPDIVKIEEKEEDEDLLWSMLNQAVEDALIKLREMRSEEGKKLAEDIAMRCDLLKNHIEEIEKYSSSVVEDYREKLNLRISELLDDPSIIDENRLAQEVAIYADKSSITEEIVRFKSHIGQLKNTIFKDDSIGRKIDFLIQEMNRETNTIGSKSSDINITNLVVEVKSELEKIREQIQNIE

Molecule = GNDGGGGGE; target or system = dog DLA-88*508:01; assay = binding, flow cytometry; test system = peptide; setting = concentration not given; how to read = relative to: control; endpoint = MHC stabilization; result = no binding
Molecule = α-dendrotoxin; target or system = Kv channel (rat); assay = radioligand binding, antagonist; endpoint = IC50; result = 0.00027 µM
Molecule = TFFRLFNRSFTGRRRRSVQWCA; target or system = Streptococcus mutans; assay = 2D-DIGE, measured: N-acetylglucosamine-6-phosphate isomerase; test system = peptide, UA159; setting = 20 µg/mL, 1 h; how to read = relative to: water control; endpoint = protein level ratio; result = -6.09
Molecule = B1 (CXCL16); target or system = Human immunodeficiency virus 1; assay = TZM-bl readout; test system = PHA-stimulated human PBMCs, CCR5-tropic; setting = 500 ng/mL; endpoint = viral replication; result = no effect
Molecule = TTTATAAAAAACCAATATATGTCTTGACACATGTAAAAAACGTTGTATAATG (dsDNA); target or system = niaR Y133A; assay = EMSA; test system = double-stranded DNA, one strand shown; endpoint = binding; result = binds
Molecule = VGYLQPRTF; test system = peptide, tetramer-reactive CD8+ T cells, unexposed HLA-A*02:01 subjects; endpoint = number of clonotypes; result = 1
Molecule = GGUGUAAAUUGUCCUUUUUGUAACUUUAAUUCCUUGUACUUAAUAUCAUUUAUUGAAUUUACUGCUCUAGAUAAAGUACCUACUUCUCUUAAUAUAUUACUAUCUAAAGUCUUAAUCAAACACACCUCCACUGAAACUACCAUGGCUAAAGUCAAAUAGUUUCUGUUUUAUAGAAUUUCACAUAAUCAAUAUUUUCAUUUUUAGUUGAAAGUUCAACUUUUUUAAAUUUUACCAU (structured RNA); target or system = YicC 1-151 (Clostridioides difficile, UniProt Q182S9); assay = EMSA; endpoint = binding; result = binds
Molecule = cbpA fragment (Streptococcus pneumoniae); target or system = CFH 508-567 (Homo sapiens, UniProt P08603); assay = ITC; endpoint = ΔH; result = -21.1 ± 0.67 kcal/mol
Molecule = COc1ncc(-c2cn([C@@H]3O[C@](F)(CO[P@@](=O)(N[C@@H](C)C(=O)OC(C)C)Oc4ccccc4)[C@@H](O)[C@H]3O)cn2)cn1; target or system = Zaire ebolavirus; assay = viral replication, reporter virus; test system = Huh-7; setting = 72 h; endpoint = IC50; result = > 100 µM
Molecule = ILKEPVHGVY; target or system = KIR2DL2+ 2DS2+ 2DL3− NK cells; assay = NK cell response; test system = peptide, human; setting = concentration not given, added: peptide-pulsed RMA-S cells; how to read = relative to: no peptide; endpoint = relative reactivity; result = 65.8% and 70.7% and 70.6%
Molecule = RPPIFIRRL; assay = T-cell response; test system = peptide, CD8+ T cells, HLA-A*02:01 unexposed humans; endpoint = number of clonotypes; result = 0
Molecule = ILKEPVHGAY; target or system = KIR2DL2− 2DS2− 2DL3+ NK cells; assay = NK cell response; test system = peptide, human; setting = concentration not given, added: peptide-pulsed RMA-S cells; how to read = relative to: no peptide; endpoint = relative reactivity; result = 110% and 107% and 97.8%
Molecule = B2; target or system = Scn2a whole channel (Rattus norvegicus, UniProt P04775); assay = equilibrium binding; test system = peptide, rat cortical neurons; endpoint = Kd; result = 0.007 µM
Molecule = trehalose dimycolate; assay = flow cytometry; test system = C57BL/6 mice, lung; setting = intravenous, 100 µg, day 5; how to read = relative to: vehicle; endpoint = monocyte and immature macrophage increase; result = 21 ± 2.2%
Molecule = quinacrine mustard; target or system = Dengue virus type 2; assay = viral replication, Rluc reporter replicon; test system = BHK-21 with DENV2 replicon; setting = 50 µM, 24 h; endpoint = inhibition; result = 99.9 ± 0.01%
Molecule = COc1ncncc1-c1cn([C@@H]2O[C@](F)(CO)[C@@H](O)[C@H]2O)cn1; target or system = Zaire ebolavirus; assay = viral replication, reporter virus; test system = Huh-7; setting = 72 h; endpoint = IC50; result = 35.1 µM
Molecule = KISEYRHYV; target or system = HN12 (HLA-A2+ HPV+); assay = 111In release; test system = peptide; setting = concentration not given, 16 h, E:T 25:1 IVS 5, added: peptide-generated T-cell line; endpoint = specific lysis; result = 38.4%
Molecule = COc1nc(N)ncc1-c1cn([C@@H]2O[C@](F)(CO[P@@](=O)(N[C@@H](C)C(=O)OC(C)C)Oc3ccccc3)[C@@H](OC(=O)C(C)C)[C@H]2OC(=O)C(C)C)cn1; target or system = Zaire ebolavirus; assay = viral replication, reporter virus; test system = Huh-7; setting = 72 h; endpoint = IC50; result = > 100 µM
Molecule = FAVDAAKAY; assay = T cell recognition, HLA-B*07:02 tetramer staining; test system = peptide, CD8+ T cells, COVID-19 convalescent human subjects, HLA-B*07:02; setting = dose not given, 5 subjects tested; endpoint = tetramer-reactive CD8+ T cell count; result = 4
Molecule = COc1ncc(-c2cn([C@@H]3O[C@](F)(CO[P@@](=O)(N[C@@H](C)C(=O)OC(C)C)Oc4ccccc4)[C@@H](OC(=O)C(C)C)[C@H]3OC(=O)C(C)C)cn2)c(OC)n1; target or system = Zaire ebolavirus; assay = viral replication, reporter virus; test system = Huh-7; setting = 72 h; endpoint = IC50; result = > 100 µM
Molecule = FASEAARVV; assay = T cell recognition, HLA-B*07:02 tetramer staining; test system = peptide, CD8+ T cells, COVID-19 convalescent human subjects, HLA-B*07:02; setting = dose not given, 5 subjects tested; endpoint = tetramer-reactive CD8+ T cell count; result = 2
Molecule = COc1nc(N)ncc1-c1cn([C@@H]2O[C@](F)(COC(=O)C(C)C)[C@@H](OC(=O)C(C)C)[C@H]2OC(=O)C(C)C)cn1; target or system = Zaire ebolavirus; assay = viral replication, reporter virus; test system = Huh-7; setting = 72 h; endpoint = IC50; result = > 100 µM
Molecule = KRVDWTIEY; test system = peptide, tetramer-reactive CD8+ T cells, COVID-19 convalescent HLA-B*07:02 subjects; endpoint = number of clonotypes; result = 3
Molecule = GTCTTTAATAATTAAACTAGTGTCTTGACAGATGTAAACAACAGGTATAAAC (dsDNA); target or system = niaR Y133A; assay = EMSA; test system = double-stranded DNA, one strand shown; endpoint = binding; result = binds

For quick reference, copied from above:
Molecule = α-dendrotoxin; target or system = Kv channel (rat); assay = radioligand binding, antagonist; endpoint = IC50; result = 0.00027 µM
Molecule = TFFRLFNRSFTGRRRRSVQWCA; target or system = Streptococcus mutans; assay = 2D-DIGE, measured: N-acetylglucosamine-6-phosphate isomerase; test system = peptide, UA159; setting = 20 µg/mL, 1 h; how to read = relative to: water control; endpoint = protein level ratio; result = -6.09
